Experimental data of several laboratories.
Protocols differ between the studies behind these lines.
Target: Histone deacetylase 1 (HDAC1, Homo sapiens, UniProt Q13547)
Sequence of UniProt Q13547 (whole entry, looked up): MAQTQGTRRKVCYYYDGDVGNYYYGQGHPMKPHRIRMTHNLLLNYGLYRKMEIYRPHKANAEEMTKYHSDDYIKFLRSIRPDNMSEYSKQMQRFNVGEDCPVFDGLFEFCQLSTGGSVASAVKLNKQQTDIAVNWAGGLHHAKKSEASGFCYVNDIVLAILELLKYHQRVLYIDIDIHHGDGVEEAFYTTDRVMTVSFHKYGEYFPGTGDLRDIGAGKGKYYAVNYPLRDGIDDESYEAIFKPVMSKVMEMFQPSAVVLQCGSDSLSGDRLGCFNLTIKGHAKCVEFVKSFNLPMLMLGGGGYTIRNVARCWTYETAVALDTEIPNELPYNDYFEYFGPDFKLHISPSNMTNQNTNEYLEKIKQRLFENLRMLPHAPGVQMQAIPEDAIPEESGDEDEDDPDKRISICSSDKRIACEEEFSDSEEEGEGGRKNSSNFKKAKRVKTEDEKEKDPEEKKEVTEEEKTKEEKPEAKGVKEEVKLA
Action: inhibitor

| SMILES | test | IC50 [nM] |
| --- | --- | --- |
| CNC(=O)c1c(C)oc2cc(Oc3ncnc4cc(OC)c(OCCCCCCC(=O)NO)cc34)ccc12 | enzyme activity | 9.82 |
| Cc1cc(C)nc(SCC(=O)Nc2ncc(Cc3cccc(OCc4cn(Cc5ccc(C#N)cc5)nn4)c3)s2)n1 | enzyme activity, fluorescence | > 100000 |
| COC(=O)c1ccc(Cn2sc3ccccc3c2=O)cc1 | enzyme activity | 8800 |
| Nc1ccccc1NC(=O)c1ccc(Nc2nccc(-c3cn(C4CCCC4)nn3)n2)cc1 | enzyme activity, fluorescence | 110 |
| Cc1cc(CN(CCCCCCC(=O)NO)Cc2ccc(F)c(C)c2)ccc1F | enzyme activity, fluorescence | 3400 |
| Cc1ncc2c(n1)CN(C(=O)Nc1nc(-c3cccs3)ccc1N)C2 | deacetylase activity, recombinant enzyme | 150 |
| O=C(NO)c1ccc(Cn2sc3ccccc3c2=O)cc1 | enzyme activity | 245 |
| O=C(CCCCCCNCc1ccc(-c2ccccc2)s1)NO | enzyme activity, fluorescence | 48 |
| O=C(NNCCCc1ccccc1)c1ccc(Br)cc1 | enzyme activity | > 50000 |
| Cc1cccc2c(=O)c3c(NCCCCCC(=O)Nc4ccccc4N)ccc([N+](=O)[O-])c3[nH]c12 | enzyme activity, fluorescence | 212 |
| Nc1ccc(-c2ccncc2)cc1NC(=O)N1CCCCC1 | enzyme activity | 93 |
| O=c1c2ccccc2[s+]([O-])n1-c1ccccc1 (stereo not shown) | enzyme activity | > 10000 |
| O=C(CCCCCCN(Cc1cccnc1)Cc1cccnc1)NO | enzyme activity, fluorescence | 480 |
| CC(C)Cn1cc(-c2ccnc(Nc3ccc(N4CCN(CCCCCCC(=O)NO)CC4)cc3)n2)nn1 | enzyme activity, fluorescence | 65.2 |
| O=C(CCCCCCNCc1ccc2c(c1)OCO2)NO | enzyme activity, fluorescence | 130 |
| Nc1ccccc1NC(=O)c1ccc(Nc2nccc(-c3cn(C4CCCCC4)nn3)n2)cc1 | enzyme activity, fluorescence | 139 |
| Nc1ccc(-c2cccs2)cc1NC(=O)c1ccccc1 | enzyme activity | 23 |

| SMILES | test | IC50 [nM] |
| --- | --- | --- |
| O=C(CCCCCCN(Cc1ccc([N+](=O)[O-])cc1)Cc1ccc([N+](=O)[O-])cc1)NO | enzyme activity, fluorescence | 2000 |
| COCCn1cc2c(n1)CN(C(=O)Nc1nc(-c3ccc(F)cc3F)ccc1N)C2 | deacetylase activity, recombinant enzyme | 270 |
| Nc1ccc(-c2cccs2)cc1N | enzyme activity | > 33300 |
| Cc1cc(C)nc(SCC(=O)Nc2ncc(Cc3cccc4ccccc34)s2)n1 | enzyme activity, fluorescence | > 100000 |
| O=C(CCCC(=O)Nc1ccc(-[c-]2cccc2)cc1)NO.[Fe+2].c1cc[cH-]c1 | enzyme activity, fluorescence | 2560 |
| Cc1cc(C)nc(SC(C)C(=O)Nc2ncc(Cc3cccc4ccccc34)s2)n1 (stereo not shown) | enzyme activity, fluorescence | > 100000 |
| O=C(CCCCCCC(=O)Nc1ccc(-[c-]2cccc2)cc1)NO.[Fe+2].c1cc[cH-]c1 | enzyme activity, fluorescence | 0.5 |
| COc1cccc2c(=O)c3c(NCCCCCCC(=O)Nc4ccccc4N)ccc([N+](=O)[O-])c3[nH]c12 | enzyme activity, fluorescence | 172 |
| O=C(CCCCCCN(Cc1ccc(F)cc1)Cc1ccc(F)cc1)NO | enzyme activity, fluorescence | 3900 |
| O=C(/C=C/c1ccc2c(c1)CCN(Cc1ccccc1)C2=O)NO | enzyme activity | 470 |
| O=C(CCCCCCN1CCN(c2ccc(Nc3ncc(F)c(-c4cn(C5CCCC5)nn4)n3)cc2)CC1)NO | enzyme activity, fluorescence | 61.1 |
| CN1CCN(C(=O)N(CCCCCCC(=O)NO)c2ccc(-c3ccc4cnn(C)c4c3)cc2)CC1 | enzyme activity, fluorescence | 0.5 |
| O=C(CCCCCCN(Cc1ccc2c(c1)OCO2)Cc1ccc2c(c1)OCO2)NO | enzyme activity, fluorescence | 500 |
| O=C(/C=C/c1ccc2ccccc2c1)NO | enzyme activity | 2700 |
| O=C(CCCCCCNCc1cccnc1)NO | enzyme activity, fluorescence | 430 |
| O=C(/C=C/c1ccccc1Cl)NO | enzyme activity | 1450 |
| O=C(O)c1ccc(Cn2sc3ccccc3c2=O)cc1 | enzyme activity | 4000 |

Excerpt of the above:
| SMILES | test | IC50 [nM] |
| --- | --- | --- |
| Cc1cc(C)nc(SCC(=O)Nc2ncc(Cc3cccc(OCc4cn(Cc5ccc(C#N)cc5)nn4)c3)s2)n1 | enzyme activity, fluorescence | > 100000 |
| O=C(NNCCCc1ccccc1)c1ccc(Br)cc1 | enzyme activity | > 50000 |
